Assay results of several laboratories.
Lines come from different studies, so protocols differ. Values joined by “and” are separate records of one study, mostly repeats; a detail may differ. Numbers after ± are the reported error.

Compound	test	test system	conditions	scale	measurement	result
CN1CCN(S(=O)(=O)c2cc([N+](=O)[O-])ccc2N(CCOS(C)(=O)=O)CCOS(C)(=O)=O)CC1	–	NSG mice, sample CB PDX	intraperitoneal, 25 mg/kg weekly x3	–	event-free survival	> 381 days
CC[C@H](C)[C@@H]1NC(=O)[C@@H]2CCCN2C(=O)[C@H](CC(C)C)NC(=O)[C@H](CC(C)C)NC(=O)CNC(=O)[C@@H](NC(=O)[C@@H](NC(=O)[C@H](CC(=O)O)NC(=O)CNC(=O)[C@@H](NC(=O)[C@H](C)NC(=O)CNC(=O)[C@H](CCCCN)NC(=O)[C@H](CC(C)C)NC(=O)[C@H](CC(C)C)NC(=O)[C@H](CCCCN)NC(=O)CNC(=O)[C@@H](NC(=O)[C@@H](N)CC(C)C)C(C)C)C(C)C)C(C)C)CSSC[C@@H](C(=O)O)NC1=O	RNA-seq, refers to: Acpp mRNA	mouse traumatic brain injury, frontal cortex and hippocampus	dose not given	reference: TBI plus compound vs TBI	log2 fold change	-2.55
CCN(Cc1nc2c(N)nc3cc(-c4cc[nH]n4)ccc3c2[nH]1)C(C)=O	Kaplan-Meier	human advanced solid tumours	dose not given	–	median overall survival	5.2 months
CS(=O)(=O)c1ccc(-c2nnc(/C=C/c3nnc(-c4ccc(C#N)cc4)o3)n2-c2ccccc2Cl)nc1	RNA-seq GSEA, refers to: HALLMARK_MYC_TARGETS_V2	organoids, small intestinal, Apc Q1405X, mouse	dose not given, wild-type organoids	reference: DMSO, direction not given	normalized enrichment score	-1.88
C[C@H]1O[C@@H](O[C@H]2CC[C@@]3(C)[C@@H](CC[C@]4(C)[C@@H]3C=C[C@]35OC[C@@]6(CCC(C)(C)C[C@H]63)[C@@H](O)C[C@]54C)[C@]2(C)CO)[C@H](O)[C@@H](O[C@@H]2O[C@H](CO)[C@@H](O)[C@H](O)[C@H]2O)[C@H]1O	Western blot, refers to: SIRT1	mouse, AAV8-TBG-Null control vector, liver	dose not given, high dose, unit not given, added: ethanol	reference: β-actin	protein level	0.871 and 0.805 and 0.991
CN(C)C1(CNC(=O)c2ccc3c(c2)CCN3C(=O)c2ccccc2)CCOCC1	acetone test	mice, chronic constriction injury	intraperitoneal, 100 mg/kg, 2 h	–	reduction of cold allodynia	62%
Nc1ncnc2c1ncn2[C@@H]1O[C@H](COP(=O)(O)O)[C@@H](OP(=O)(O)O)[C@H]1O	binding, equilibrium dialysis LC-MS	–	5 µM, thermostabilized A2AR-BRIL construct	reference: no-protein control, direction not given	z-scored log2 fold change	-0.167
C[C@H](NC(=O)c1c(C(F)F)nn(C)c1Oc1cccc(C(F)(F)F)c1)c1ccc(C(=O)O)cc1	–	human, advanced tumours	500 mg	–	median overall survival	3.7 months
C[C@]1(CO)Cc2ncn(-c3ccc(C#N)c(Cl)c3)c2C(=O)O1	aldosterone synthesis, inhibitor, refers to: cortisol	healthy Japanese adults, urine	80 mg, 0-24 h after first dose, multiple rising dose	–	urinary excretion	76.7 mmol
Clc1cc2c(cc1Cl)Oc1cc(Cl)c(Cl)cc1O2	RNA-Seq, refers to: Alox5ap	female Sprague-Dawley rat, liver	dose not given	–	mRNA level	no effect
CNC(=O)c1c(C)oc2cc(Oc3ccnc4cc(OCCN5CCOCC5)ccc34)ccc12	DCE-MRI	patients	dose not given, twice daily dosing	–	patients with vascular response	83%
CC(=O)c1c(C)c2cnc(Nc3ccc(C4CCN(CCS(C)(=O)=O)CC4)cn3)nc2n(C2CCCC2)c1=O	RECIST v1.1	HR+/HER2- advanced breast cancer patients	100 mg twice daily, phase Ib monotherapy arm	–	best response stable disease	93.3%
Cc1nc(Nc2ccc(CC(=O)O)cc2)nc(Nc2ccc(F)c(C(F)(F)F)c2)c1C	–	C57BL/6J mouse, high-fat diet MASH model, white adipose tissue	intraperitoneal, 0.3 mg/kg daily, 60% fat diet for 12 weeks, dosed final four weeks	reference: untreated	adipocyte area	decreased
CCCCCCCCCC(=O)N[C@@H](Cc1c[nH]c2ccccc12)C(=O)N[C@H](CC(N)=O)C(=O)N[C@@H](CC(=O)O)C(=O)N[C@@H]1C(=O)NCC(=O)N[C@@H](CCCN)C(=O)N[C@@H](CC(=O)O)C(=O)N[C@H](C)C(=O)N[C@@H](CC(=O)O)C(=O)NCC(=O)N[C@H](CO)C(=O)N[C@@H]([C@H](C)CC(=O)O)C(=O)N[C@@H](CC(=O)c2ccccc2N)C(=O)O[C@@H]1C	calcein leakage	DOPC/CHOL liposomes	concentration not given, added: 20 wt% PEG-8000	–	maximum fusion	63 ± 5%
CCCCC1(CCCC)CN(c2ccccc2)c2cc(SC)c(OCC(=O)N[C@@H](C(=O)NCC(=O)O)c3ccccc3)cc2S(=O)(=O)C1	refers to: HDL cholesterol	human, serum	10 mg once daily, day 5	–	serum HDL-C	48.8 mg/dL
[131I-].[Na+]	–	hyperthyroidism patients	185 MBq, long-term follow-up	–	patients requiring third ablation	~1.7%
CC[C@H](C)C[C@H](C)CCCCCCCCC(=O)N[C@H]1C[C@@H](O)[C@@H](NCCN)NC(=O)[C@@H]2[C@@H](O)CCN2C(=O)[C@H]([C@H](O)CCN)NC(=O)[C@H]([C@H](O)[C@@H](O)c2ccc(O)cc2)NC(=O)[C@@H]2C[C@@H](O)CN2C(=O)[C@H]([C@@H](C)O)NC1=O	calcein leakage	DOPC/DOPG/CHOL liposomes	concentration not given, added: 40 mM CaCl2	–	maximum fusion	1 ± 1%
